Published values pooled from the literature.
Each line is one published result; not all experiments were run side by side. Several values in a cell are separate wells, animals, samples, runs or records. ± gives the spread as reported. ≈ marks a conversion by molar mass, not a printed value.

CC1(N)CCN(c2cccnc2NC(=O)c2nc(-c3ncccc3C(F)(F)F)cnc2N)CC1 — metabolic activity (Aspergillus fumigatus; 20 µM; reference: untreated): ≥ 80%
CO/N=C(\C(=O)N[C@@H]1C(=O)N2C(C(=O)O)=C(CSC(=O)c3ccco3)CS[C@H]12)c1csc(N)n1 — MBC (Staphylococcus aureus; CAAS-2019-CAAS-2019-11 clinical drug-resistant isolate, PBS): 8 µg/mL
O=C1Nc2ccc(I)cc2/C1=C/c1cc(Br)c(O)c(Br)c1 — inhibition (murine hepatitis virus; viral replication, nanoluciferase reporter; DBT; 1 µM; reference: DMSO vehicle): 35%
COc1cnc(OC)n2nc(NS(=O)(=O)c3c(OCC(F)F)cccc3C(F)(F)F)nc12 — inhibition (Eclipta prostrata; fresh weight; 150 g ai/ha, post-emergence treatment): 96.6% and 98.2% and 98%
CC[C@H](C)[C@H](NC(=O)[C@H](C)NC(=O)[C@H](CCCCN)NC(=O)[C@H](CC(C)C)NC(=O)[C@H](C)NC(=O)[C@@H](NC(=O)[C@H](Cc1c[nH]cn1)NC(=O)[C@H](CC(C)C)NC(=O)[C@@H](NC(=O)[C@@H](NC(=O)[C@H](CCCCN)NC(=O)[C@H](C)NC(=O)[C@H](C)NC(=O)[C@H](CO)NC(=O)[C@H](CCCCN)NC(=O)[C@H](Cc1ccccc1)NC(=O)[C@@H](NC(=O)[C@H](CCCCN)NC(=O)[C@H](CC(C)C)NC(=O)[C@H](Cc1ccccc1)NC(=O)[C@H](CO)NC(=O)[C@H](CCCCN)NC(=O)[C@H](Cc1c[nH]c2ccccc12)NC(=O)[C@H](CCCCN)NC(C)=O)[C@@H](C)O)[C@@H](C)O)C(C)C)[C@@H](C)O)C(=O)N[C@@H](CO)C(=O)N[C@@H](CO)C(N)=O — MBC90 (Pseudomonas aeruginosa; ATCC 27853): 8 µg/mL (≈ 2.73 µM)
COc1ccc2c(ccc3oc([N+](=O)[O-])c(OC)c32)c1 — MIC90 (Mycobacterium avium subsp. hominissuis; REMA; ATCC 25291): > 32 µg/mL
COC(=O)C1=C(C)NC(C)=C(C(=O)OC(C)(C)CN(C)CCC(c2ccccc2)c2ccccc2)C1c1cccc([N+](=O)[O-])c1 (stereo not drawn) — metabolic activity (Aspergillus fumigatus; Alamar blue; 7.8 µg/mL, 48 h, added: caspofungin 0.2 µg/mL): 24.8% and 23.7%
CC[C@H](C)[C@H](NC(=O)[C@H](CCCNC(=N)N)NC(=O)[C@H](Cc1c[nH]c2ccccc12)NC(=O)[C@H](CCCNC(=N)N)NC(=O)[C@H](Cc1c[nH]c2ccccc12)NC(=O)[C@H](Cc1c[nH]c2ccccc12)NC(=O)[C@H](Cc1c[nH]c2ccccc12)NC(=O)[C@H](CCCNC(=N)N)NC(=O)[C@H](Cc1c[nH]c2ccccc12)NC(=O)[C@@H](N)CCCNC(=N)N)C(N)=O — MIC (Candida albicans; broth microdilution; CGMCC 2.209, RPMI 1640-MOPS; 48 h, 30 °C, added: MgCl2 1 mM): 16 µM (≈ 27 µg/mL)
CC(=O)C1=CC[C@H]2[C@@H]3C=CC4=CC(=O)CC[C@]4(C)[C@H]3C[C@@H](O)[C@]12C — IC50 (Leishmania mexicana; parasite growth, propidium iodide flow cytometry; promastigotes; 48 h): 26.2 µM
Nc1ccn([C@@H]2O[C@H](CO)[C@@H](O)C2(F)F)c(=O)n1 — selectivity index (human alphaherpesvirus 1; K26 GFP, 3D skin equivalent, air-liquid; reference: CC50 over IC50): > 62.5
CC[C@H](C)[C@H](NC(=O)[C@H](CCCNC(=N)N)NC(=O)[C@H](Cc1c[nH]c2ccccc12)NC(=O)[C@H](CCCNC(=N)N)NC(=O)[C@H](Cc1c[nH]c2ccccc12)NC(=O)[C@H](Cc1c[nH]c2ccccc12)NC(=O)[C@H](Cc1c[nH]c2ccccc12)NC(=O)[C@H](CCCNC(=N)N)NC(=O)[C@H](Cc1c[nH]c2ccccc12)NC(=O)[C@H](CCCNC(=N)N)NC(=O)CN)C(N)=O — MIC (Candida parapsilosis; broth microdilution; CGMCC 2.399, RPMI 1640-MOPS; 48 h, 30 °C): 8 µM (≈ 13.9 µg/mL)
Cc1ccc(NC(=O)Nc2cc(C(F)(F)F)ccc2F)cc1Nc1ccc2c(c1)NC(=O)/C2=C\c1ccc[nH]1 — inhibition (murine hepatitis virus; viral replication, nanoluciferase reporter; DBT; 1 µM, 10 h; reference: DMSO vehicle): 51%
Cn1c(=O)ccc2ccc(F)c(CCNC[C@H]3CN(c4cnc5c(n4)NC(=O)CO5)C(=O)O3)c21 — MIC90 (Moraxella catarrhalis): < 0.015 µg/mL
CCc1cncnc1N1CCN(Cc2nc3ccc(C(F)(F)F)cc3[nH]2)CC1 — inhibition (murine hepatitis virus; viral replication, nanoluciferase reporter; DBT; 1 µM; reference: DMSO vehicle): 0%
Nc1ncnc2c1ncn2[C@@H]1O[C@@H]2COP(=O)(O)O[C@H]3[C@@H](O)[C@H](n4cnc5c(=O)[nH]cnc54)O[C@@H]3COP(=O)(O)O[C@H]2[C@H]1O — fold enrichment (West Nile virus; RNA sequencing, measured: interactions, butyrophilin family, R-HSA-8851680; HFF-1 cells; concentration not given, upregulated pathway; reference: WNV-infected untreated cells): 10.2
C[C@H](c1ccnc(Nc2nc3ccc(-c4cc(N(C)C)ncn4)cc3[nH]2)c1)N1CCN(C(=O)CC(F)(F)F)CC1 — inhibition (murine hepatitis virus; viral replication, nanoluciferase reporter; DBT; 1 µM, 10 h; reference: DMSO vehicle): 23%
CCCC(CCC)C(=O)Nc1ccccc1O — log2 fold change (Artemia franciscana; LC-MS/MS metabolomics, measured: 1-aminocyclopropanecarboxylic acid; larvae; concentration not given, 48 h, LC10 concentration; reference: vehicle): 0.816
CS(=O)(=O)CCCn1c(Cn2c(=O)n(CC(F)(F)F)c3ccncc32)cc2cc(Cl)ccc21 — LS mean viral load change (respiratory syncytial virus; RT-qPCR; hospitalized infants 1-24 months, nasal swab; oral, 8 mg/kg daily, day 5, cohort 6-24 months; reference: baseline): -2.32 log10 copies/mL
CCCCCCCCCCCc1c([N+](=O)[O-])oc2ccc3ccccc3c12 — MIC90 (Mycobacterium avium subsp. hominissuis; REMA; ATCC 25291): > 32 µg/mL
C[C@@H](N)[C@H]1CC[C@H](C(=O)Nc2ccncc2)CC1 — inhibition (murine hepatitis virus; viral replication, nanoluciferase reporter; DBT; 1 µM; reference: DMSO vehicle): 11%
C[C@H](NC(=O)[C@H](CCCNC(=N)N)NC(=O)[C@H](Cc1c[nH]c2ccccc12)NC(=O)[C@H](CCCNC(=N)N)NC(=O)[C@H](Cc1c[nH]c2ccccc12)NC(=O)[C@H](Cc1c[nH]c2ccccc12)NC(=O)[C@H](Cc1c[nH]c2ccccc12)NC(=O)[C@H](CCCNC(=N)N)NC(=O)[C@H](Cc1c[nH]c2ccccc12)NC(=O)[C@@H](N)CCCNC(=N)N)C(N)=O — MIC (Candida albicans; broth microdilution; CGMCC 2.209, RPMI 1640-MOPS; 48 h, 30 °C, added: FeCl3 4 µM): 8 µM (≈ 13.2 µg/mL)
CNC(C)C1CCC(N)C(OC2C(N)CC(N)C(OC3OCC(C)(O)C(NC)C3O)C2O)O1 (stereo not drawn) — MLC (Bacillus cereus; broth microdilution): 4 ± 2 µg/mL (≈ 8.38 µM)
CC1=C(C#N)[C@@H](c2ccc3[nH]nc(C)c3c2)C(C#N)=C(c2ccc(Cl)cc2)N1 — inhibition (murine hepatitis virus; viral replication, nanoluciferase reporter; DBT; 1 µM, 10 h; reference: DMSO vehicle): 0%
COC(=O)C1CCN(C(=O)c2ccc(NCc3cnc4nc(N)nc(N)c4n3)cc2)CC1 — inhibition (Leishmania infantum; amastigote growth; THP-1-derived macrophages; 10 µM, 72 h): 14 ± 1%

For quick reference, copied from above:
COc1cnc(OC)n2nc(NS(=O)(=O)c3c(OCC(F)F)cccc3C(F)(F)F)nc12 — inhibition (Eclipta prostrata; fresh weight; 150 g ai/ha, post-emergence treatment): 96.6% and 98.2% and 98%
CC[C@H](C)[C@H](NC(=O)[C@H](C)NC(=O)[C@H](CCCCN)NC(=O)[C@H](CC(C)C)NC(=O)[C@H](C)NC(=O)[C@@H](NC(=O)[C@H](Cc1c[nH]cn1)NC(=O)[C@H](CC(C)C)NC(=O)[C@@H](NC(=O)[C@@H](NC(=O)[C@H](CCCCN)NC(=O)[C@H](C)NC(=O)[C@H](C)NC(=O)[C@H](CO)NC(=O)[C@H](CCCCN)NC(=O)[C@H](Cc1ccccc1)NC(=O)[C@@H](NC(=O)[C@H](CCCCN)NC(=O)[C@H](CC(C)C)NC(=O)[C@H](Cc1ccccc1)NC(=O)[C@H](CO)NC(=O)[C@H](CCCCN)NC(=O)[C@H](Cc1c[nH]c2ccccc12)NC(=O)[C@H](CCCCN)NC(C)=O)[C@@H](C)O)[C@@H](C)O)C(C)C)[C@@H](C)O)C(=O)N[C@@H](CO)C(=O)N[C@@H](CO)C(N)=O — MBC90 (Pseudomonas aeruginosa; ATCC 27853): 8 µg/mL (≈ 2.73 µM)
COc1ccc2c(ccc3oc([N+](=O)[O-])c(OC)c32)c1 — MIC90 (Mycobacterium avium subsp. hominissuis; REMA; ATCC 25291): > 32 µg/mL
